Assay results of several laboratories.
“And” joins repeats or separate records; there may be more than shown. Numbers after ± are the reported error.

C[C@]1(CO)Cc2ncn(-c3ccc(C#N)c(Cl)c3)c2C(=O)O1 — result for “subjects with drug-related TEAE”: 0% (refers to: abnormal skin odour; human; 80 mg multiple doses, fasted).
CN1CCN(S(=O)(=O)c2cc([N+](=O)[O-])ccc2N(CCOS(C)(=O)=O)CCOS(C)(=O)=O)CC1 gave a hemoglobin of 180 g/L and 162 g/L and 148 g/L and 168 g/L (NOD/SCID mouse, naive, blood; intraperitoneal, 25 mg/kg, week 4).
O=C1Nc2cc3[nH]nc(-c4ccncc4)c3cc2CN1Cc1ccccc1: “patients with TEAE” 11% (refers to: Dyspepsia; patients with advanced solid tumours; intravenous, dose not given).
The globulin of Nc1ncnc2c1ncn2[C@@H]1O[C@@H]2COP(=O)([S-])O[C@@H]3[C@H](O)[C@@H](COP([O-])(=S)O[C@H]2[C@H]1O)O[C@H]3n1cnc2c(N)ncnc21.[Na+].[Na+] (some centres unmarked) is reported as 23 ± 2.45 g/L (non-tumor-bearing mice, serum; intravenous, 1 mg/kg, toxicity study).
The plasma half-life of C[C@H](NP(=O)(O)OC[C@H]1O[C@@](C#N)(c2ccc3c(N)ncnn23)[C@H](O)[C@@H]1O)C(=O)O is reported as roughly 60 min (human).
Under “serious adverse events”, O=C(c1ccc(F)c(F)c1Nc1ccc(I)cc1F)N1CC(O)([C@@H]2CCCCN2)C1 is recorded as 23% (human patients; oral, dose not given, dose escalation, suspension).
Under “patients with ALT increase”, C=CCNc1c(O)cc2c(O)c1C[C@@H](C)C[C@H](OC)[C@H](O)[C@@H](C)/C=C(\C)[C@H](OC(N)=O)[C@@H](OC)/C=C\C=C(/C)C(=O)N2 is recorded as 0% (unresectable or metastatic sarcoma; intravenous, 90 mg/m^2, grade 3-4 lab change).
Oc1c(Cl)cc2c(c1Cl)Oc1cc(Cl)c(Cl)cc1O2: “milk fat partition ratio” 25.1 (cow whole milk; 100 nM; baseline: milk fat over skim milk).
C=CC(=O)N1CC[C@H](n2nc(C#Cc3cc(OC)cc(OC)c3)c3c(N)ncnc32)C1 — result for “decreased appetite, grade ≥3”: 5% (human patients; oral, dose not given, QD regimen, adverse drug reaction, with: any phosphate binder).
Under “large unstained cells”, CCc1ccc(CC/C=C/c2ccc3c(c2)C(=O)CC3)cc1 is recorded as 1.13% (Sprague-Dawley rat, female, blood; oral, 450 mg/kg/day, 14 days).
CC(=O)c1c(C)c2cnc(Nc3ccc(C4CCN(CCS(C)(=O)=O)CC4)cn3)nc2n(C2CCCC2)c1=O has a Vss of 332 to 3190 L (human, plasma; oral, dose not given, steady state, continuous dosing, range over doses).
C[C@@H](NC(=O)N1C(=O)[C@H](Cc2ccnc(N)c2)[C@H]1C(=O)O)C1CCCCC1: “incidence of urine occult blood positive” 0% (healthy adult Chinese volunteers; continuous intravenous infusion, 0.6 mg/kg/h, 5-day infusion, CTCAE 5.0 grading).
For N=C(N)NCCC[C@@H](NC(=O)[C@@H](N)Cc1ccccc1)C(=O)N[C@@H](Cc1ccccc1)C(=O)N[C@@H](CCCCN)C(N)=O, “mean amount excreted in urine” read 302000 ng (LC-MS; human; 5 mg, 11.83 h).
C1=Cc2nc1cc1ccc([n-]1)c(-c1ccccc1)c1nc(cc3ccc([n-]3)c2-c2ccccc2)C=C1.CC(=O)[O-].[Mn+3] gave a plasma concentration of 40 ng/mL (LC-MS/MS; Sprague-Dawley rat, plasma; oral gavage, dose not given, 60 min, individual rat Rat2).
For CO[C@H]1C[C@@H]2CC[C@@H](C)[C@@](O)(O2)C(=O)C(=O)N2CCCC[C@H]2C(=O)O[C@H]([C@H](C)C[C@@H]2CC[C@@H](OC(=O)NCCOCCOCCOCCOCCOCCOCCOCCOCCC(=O)N3CCc4cc(Cn5nc(-c6ccc7oc(N)nc7c6)c6c(N)ncnc65)ccc4C3)[C@H](OC)C2)C[C@@H](O)[C@H](C)/C=C(\C)[C@@H](O)[C@@H](OC)C(=O)[C@H](C)C[C@H](C)/C=C/C=C/C=C/1C, “incidence of Vomiting TEAE” read 20% (patients with advanced solid tumours; intravenous, 1.6 mg/3 mg weekly, any grade).
For Clc1ccc(-c2ccccc2)cc1, the alanine aminotransferase was 40 ± 5 U/L (Sprague-Dawley rats, female, serum; inhalation, 23 µg/rat, 0 h after exposure).
NCCCS(=O)(=O)O has a plasma concentration of 1130 ng/mL (human; oral, 265 mg twice daily, 2 h post-dose, week 65).
Cc1cccc(Cn2nc(C3CC3)c3c(NC(=O)c4cnc5cc(OCCN6CCN(C)CC6)ccn45)cccc32)n1: “all-cause adverse events” 42.9% (CTCAE v4.03, refers to: blood CPK increased; patients with advanced solid tumours; oral, 400 mg, dose escalation, with: pembrolizumab 2 mg/kg IV every 3 weeks).
N#C[C@H](O[C@@H]1O[C@H](CO)[C@@H](O)[C@H](O)[C@H]1O)c1ccccc1 has a Tmax of 34.8 ± 15.6 min (Sprague Dawley rat, plasma; oral, 10 g lyophilized powder/kg, high dose).
Under “patients with adverse event”, CN1CC[C@@H](c2c(O)cc(O)c3c(=O)cc(-c4ccc(C(F)(F)F)cc4Cl)oc23)[C@@H]1CO is recorded as 0% (refers to: Pyrexia; B-cell malignancies or AML; oral, 50 mg, continuous dosing).
CC1(C)C(C=C(Cl)Cl)C1C(=O)OC(C#N)c1ccc(F)c(Oc2ccccc2)c1 (centres unmarked): “enzyme contribution to clearance” 0.91% (refers to: CYP3A4; human, age 1 year, recombinant human CYP3A4; 0.1 µM).
For COc1ccc(CCC2CCCC(CCc3ccc(OC)cc3)N2C[C@@H](O)CO)cc1.Cl (stereo in doubt), “resting membrane potential change” read 1.6 ± 1.7 mV (rabbit Purkinje fibres; 0.3 µM, cycle length 0.5 s; baseline: baseline).
CN(C)c1cccc2c(S(=O)(=O)N3CCN(c4ccccc4)CC3)cccc12 gave an excitation maximum of 321 nm (toluene; 20 °C).
For NCCCC[C@@H]1NC(=O)[C@@H](Cc2c[nH]c3ccccc23)NC(=O)[C@H](c2ccccc2)NC(=O)[C@@H]2C[C@@H](OC(=O)NCCN)CN2C(=O)[C@H](Cc2ccccc2)NC(=O)[C@H](Cc2ccc(OCc3ccccc3)cc2)NC1=O, “subjects with abdominal pain” read 42% (healthy human volunteers; 1950 µg twice daily).
NC(=O)[C@H]1CCN(c2ncnc(N)c2F)C[C@@H]1N1CCC[C@@H](Nc2cc(Cl)cc(C(F)(F)F)c2)C1=O: “grade ≥3 leukopenia” 0% (B-cell malignancy patients; oral, 328 mg twice daily, dose).
Under “unbound fraction in brain”, CNC(=O)C(CCN1CCC(O)(c2ccc(Cl)cc2)CC1)(c1ccccc1)c1ccccc1 is recorded as 0.008 (ultrafiltration; human, brain homogenate; 1 µM, corrected for lysosomal trapping).
O=S(=O)(Nc1ccccc1)c1ccc(NC(=S)Nc2ccccc2)cc1: “relative organ weight” 0.48% (male mice, heart; oral, 5 mg/kg daily 14 days; baseline: body weight).
For COc1ccc(-c2c(-c3ccc(C#N)c(F)c3)nc(N3CCC(N)CC3)n(C)c2=O)cc1F, “treatment-related adverse event incidence” read 0% (refers to: Leukopenia; relapsed/refractory marginal zone lymphoma patients; oral, 60 mg, any grade, dose expansion).
CC[C@H](C)[C@H](NC(=O)[C@H](Cc1ccccc1)NC(=O)[C@H](CCC(=O)O)NC(=O)[C@H](CCCNC(=N)N)NC(=O)[C@H](C)NC(=O)[C@H](C)NC(=O)[C@H](CCC(N)=O)NC(=O)[C@H](CCC(=O)O)NC(=O)[C@H](CCC(=O)O)NC(=O)[C@H](CC(C)C)NC(=O)[C@H](Cc1ccc(O)cc1)NC(=O)[C@H](CO)NC(=O)[C@H](CO)NC(=O)[C@@H](NC(=O)[C@H](CC(=O)O)NC(=O)[C@H](CO)NC(=O)[C@@H](NC(=O)[C@H](Cc1ccccc1)NC(=O)[C@@H](NC(=O)CNC(=O)[C@H](CCC(=O)O)NC(=O)[C@H](C)NC(=O)CCc1cnc[nH]1)[C@@H](C)O)[C@@H](C)O)C(C)C)C(=O)N[C@@H](C)C(=O)N[C@@H](Cc1c[nH]c2ccccc12)C(=O)N[C@@H](CC(C)C)C(=O)N[C@H](C(=O)N[C@@H](CCCNC(=N)N)C(=O)NCC(=O)N[C@@H](CCCNC(=N)N)C(=O)N[C@@H](CCCCNC(=O)COCCOCCNC(=O)COCCOCCNC(=O)CC[C@H](NC(=O)CCCCCCCCCCCCCCCCC(=O)O)C(=O)O)C(=O)NCC(=O)NCC(=O)N[C@@H](CO)C(=O)N[C@@H](CCCCNC(=O)[C@H](CCCCNC(=O)[C@H](CCCCNc1c(NCCCCCN(O)C(=O)CCC(=O)NCCCCCN(O)C(=O)CCC(=O)NCCCCCN(O)C(C)=O)c(=O)c1=O)Nc1c(NCCCCCN(O)C(=O)CCC(=O)NCCCCCN(O)C(=O)CCC(=O)NCCCCCN(O)C(C)=O)c(=O)c1=O)NC(=O)[C@H](CCCCNc1c(NCCCCCN(O)C(=O)CCC(=O)NCCCCCN(O)C(=O)CCC(=O)NCCCCCN(O)C(C)=O)c(=O)c1=O)Nc1c(NCCCCCN(O)C(=O)CCC(=O)NCCCCCN(O)C(=O)CCC(=O)NCCCCCN(O)C(C)=O)c(=O)c1=O)C(=O)O)C(C)C [zirconium-89 labelled] gave a tissue uptake of 0.33 %ID/g and 0.327 %ID/g and 0.298 %ID/g and 0.313 %ID/g and 0.321 %ID/g (ex vivo gamma counting; Sprague-Dawley rat, male, heart; intravenous, 1 nmol, 24 h).
COc1ncccc1-c1cnn2ccc(N3CCN(C(=O)OC(C)C)CC3)nc12 gave a drug concentration of 10.3 µM (rat, rotarod test, brain; 60 mg/kg, 180 min).
COc1cc(N2CCC(N3CCN(C)CC3)CC2)ccc1Nc1ncnc(Nc2ccccc2S(=O)(=O)C(C)C)n1 — result for “treatment-emergent adverse events”: 3 number (percent) (refers to: Insomnia; Japanese patients with solid tumours; oral, dose not given, all grades).
For [O-][S+]1CCc2nc(N3CCC(c4ncc(Cl)cn4)CC3)nc(NC3(CO)CCC3)c21 (centres unmarked), the triglycerides was 0.5 mmol/L (refers to: mean; idiopathic pulmonary fibrosis patients, blood; 18 mg twice daily, at last treatment).
